Results collected from several papers.
Compare with care: the assays were run in different laboratories. “And” joins repeats or separate records; there may be more than shown. ± marks the error that the study gave.

SMILES	target	test	test system	setting	scale	quantity	result
COc1ccc([C@@H]2CC(=O)c3c(O)cc(O)cc3O2)cc1O	bovine serum albumin	methylglyoxal-mediated glycation, fluorescence		concentration not given		inhibition	51.6 ± 5.42%
O=C(C#Cc1cn(Cc2ccccc2)c(=O)[nH]c1=O)NCc1ccccc1	MMP-9	inhibitor, colorimetric		20 µM		remaining MMP-9 activity	104 ± 5%
O=C(COC(=O)c1cccc(Oc2ccccc2)c1)COC(=O)c1cccc(Oc2ccccc2)c1	NAADP receptor	antagonist, fluo-3 fluorescence	Lytechinus pictus, egg homogenate	up to 6 µM, added: NAADP 30 to 50 nM		NAADP-mediated Ca2+ release	inactive
c1coc(-c2n[nH]cc2-c2ccnc3ccccc23)c1	AKL1 (Candida albicans)	kinase binding, MIB/MS competition	Candida albicans lysate	1 µM	reference: DMSO	log2 fold change	-0.21
CC(=O)O[C@H]1C[C@H]2[C@@](C)(CC[C@H]3C(C)(C)CCC[C@@]32C=O)[C@@H]2CC=C(C(C)=O)[C@H](C=O)[C@@]12C	HIF-2α human	HRE-luciferase reporter gene	786-0 cells with HRE-luciferase reporter	100 µM, active cut-off 100 µM		activity class	active
NCc1ccccc1	AOC4 (dog)	substrate turnover, AOC4 oxidation		concentration not given, unit not given	reference: DMSO control	enzyme activity	22.9 and 24.4 and 26.3 and 26.7 and 22.3 and 23.8 and 24.8 and 24.3
O=C(O)COP(=O)(O)O	SAR11_0271 Candidatus Pelagibacter sp.	differential scanning fluorimetry		concentration not given	higher = stronger binding	ΔTm	4.29 °C
Cc1cccc(C)c1NC(=O)CCCC(C)O (centres unmarked)	neuronal sodium channel	sodium current, blocker, node voltage clamp	Rhinella marina			IC50	~2000 µM
CN(C)CCCn1c(=O)c2ccc3c(=O)n(CCCN(C)C)c(=O)c4c5[nH]c6ccccc6[nH]c5c(c1=O)c2c34	human telomeric G-quadruplex	FRET melting		0.25 µM, K+ 100 mM		ΔTm	6 ± 0.1 °C
O=c1cc(-c2ccc(O)c(O)c2)oc2cc(O)cc(O)c12	bovine serum albumin	methylglyoxal-mediated glycation, fluorescence		concentration not given		inhibition	96.3 ± 1.36%
CN(C)c1ccc2nc3ccc(=[N+](C)C)cc-3sc2c1	GABAA receptor, human, γ2-containing		HEK293 cells			maximal inhibition	74 to 96%
Cc1ccc(-c2cc(C(=O)NCC(C)(C)CNC(=O)c3cc(-c4ccc(C)o4)nc4ccccc34)c3ccccc3n2)o1	NAADP receptor	antagonist, fluo-3 fluorescence	Lytechinus pictus, egg homogenate	up to 6 µM, added: NAADP 30 to 50 nM		NAADP-mediated Ca2+ release	inactive
CN(C)CCCn1c(=O)c2ccc3c(=O)n(CCCN(C)C)c(=O)c4c5[nH]c6cc([N+](=O)[O-])ccc6[nH]c5c(c1=O)c2c34	human telomeric G-quadruplex	FRET melting		0.25 µM, K+ 100 mM		ΔTm	5.3 ± 1.1 °C
CC(C)C[C@H](NC(=O)[C@H](Cc1ccc(O)cc1)NC(=O)[C@H](CCC(N)=O)NC(=O)[C@@H](N)CC(=O)O)C(=O)N[C@@H](C)C(=O)N[C@H](C(=O)N1CCC[C@H]1C(=O)N[C@@H](CCC(N)=O)C(=O)N[C@@H](Cc1c[nH]cn1)C(=O)N1CCC[C@H]1C(=O)N[C@@H](Cc1ccc(O)cc1)C(=O)N[C@@H](CCC(N)=O)C(=O)N[C@@H](Cc1c[nH]c2ccccc12)C(=O)N[C@@H](C)C(=O)N[C@@H](CCCCN)C(=O)O)C(C)C	human calcineurin A/B	NMR HSQC		62 µM, added: 75 µM CnAB		fraction bound	90%
CC(C)NCC(O)c1ccc(O)c(O)c1 (centres unmarked)	β2 adrenergic receptor E122Q (human)	PRESTO-Tango luciferase	HTLA cells	3 µM		β-arrestin2 recruitment	2990 RLU and 3810 RLU and 3750 RLU and 3350 RLU and 4450 RLU and 3940 RLU
O=S(=O)(NCCNC/C=C/c1ccc(Br)cc1)c1cccc2cnccc12	PKA	inhibitor	mouse zygotes	20 µM, injection, hCG, 120 h post, early embryonic development		embryos arrested at zygote stage	0%

SMILES	target	test	test system	setting	scale	quantity	result
O=C(COc1ccccc1-c1ccccc1)N1CCN(S(=O)(=O)c2ccc3c(c2)OCCO3)CC1	NAADP receptor	antagonist, fluo-3 fluorescence	Lytechinus pictus, egg homogenate	up to 6 µM, added: NAADP 30 to 50 nM		NAADP-mediated Ca2+ release	inactive
O=C(O)CCCOc1cccc(CNC(=O)C#Cc2cn(Cc3ccc(C(=O)O)cc3)c(=O)[nH]c2=O)c1	MMP-9	inhibitor, FRET		10 µM		remaining MMP-9 activity	107 ± 3%
CN(C)CCCNc1cc2c(=O)n(CCCN(C)C)c(=O)c3c4[nH]c5ccccc5[nH]c4c4c(=O)n(CCCN(C)C)c(=O)c1c4c23	human telomeric G-quadruplex	FRET melting		0.25 µM, K+ 100 mM		ΔTm	0.5 ± 0.7 °C
O=c1cc(-c2ccc(O)cc2)oc2cc(O)cc(O)c12	bovine serum albumin	methylglyoxal-mediated glycation, fluorescence		concentration not given		inhibition	73.66 ± 0.58%
CCN(CC)CCOC(=O)c1ccc(NC(=O)c2cc(-c3cccc4ccccc34)nc3ccccc23)cc1	NAADP receptor	antagonist, fluo-3 fluorescence	Lytechinus pictus, egg homogenate	up to 6 µM, added: NAADP 30 to 50 nM		NAADP-mediated Ca2+ release	inactive
COc1ccccc1-c1n[nH]c2nc(N[C@H]3CC[C@H](NS(=O)(=O)CCCOCCOCCNC(=O)OC(C)(C)C)CC3)ncc12	Leishmania donovani CYC6 (LINJ.32.3520)	resin binding competition	promastigote lysate	10 µM	reference: DMSO	log2 SILAC ratio heavy/light	3.12
C[N+](C)(C)CCCn1c(=O)c2cc(Br)c3c(=O)n(CCC[N+](C)(C)C)c(=O)c4c5[nH]c6ccccc6[nH]c5c(c1=O)c2c34.[I-].[I-]	human telomeric G-quadruplex	FRET melting		0.25 µM, K+ 100 mM		ΔTm	3.8 ± 0.3 °C
CC(C)(c1ccccc1)c1ccc(OC[C@@H](O)CN[C@H](Cc2ccccc2)c2nc(-c3ccccc3)no2)cc1	NAADP receptor	antagonist, fluo-3 fluorescence	Lytechinus pictus, egg homogenate	up to 6 µM, added: NAADP 30 to 50 nM		NAADP-mediated Ca2+ release	inactive
O=C(CO)CO	SAR11_0271 Candidatus Pelagibacter sp.	differential scanning fluorimetry		concentration not given	higher = stronger binding	ΔTm	8.32 °C
COc1cc2c(cc1OC)-c1cc(NCCN3CCN(C(=O)c4ccc(F)cc4)CC3)nc(=O)n1CC2	NAADP receptor	antagonist, fluo-3 fluorescence	Lytechinus pictus, egg homogenate	up to 6 µM, added: NAADP 30 to 50 nM		NAADP-mediated Ca2+ release	inactive
Oc1ccccc1-c1n[nH]cc1-c1ccnc2ccccc12	POM1 (Candida albicans)	kinase binding, MIB/MS competition	Candida albicans lysate	10 µM	reference: DMSO	log2 fold change	-0.55
CN(C)CCCn1c(=O)c2cc(Br)c3c(=O)n(CCCN(C)C)c(=O)c4c5[nH]c6ccc(C(=O)O)cc6[nH]c5c(c1=O)c2c34	human telomeric G-quadruplex	FRET melting		0.25 µM, K+ 100 mM		ΔTm	3 ± 0.1 °C
O=c1c(O)c(-c2ccc(O)cc2)oc2cc(O)cc(O)c12	bovine serum albumin	methylglyoxal-mediated glycation, fluorescence		concentration not given		inhibition	78.3 ± 2.63%
CCS(=O)(=O)c1nc(S(=O)(=O)c2ccccc2Cl)c(N2CC3(CC3)C2)s1	Keap1-NRF2, human	NRF2 nuclear translocation, activator	U2OS			EC50	> 31.6 µM
NC(=O)c1c(NC(=O)CN2CCN(S(=O)(=O)c3ccc4c(c3)OCCO4)CC2)sc2c1CCCC2	NAADP receptor	antagonist, fluo-3 fluorescence	Lytechinus pictus, egg homogenate	up to 6 µM, added: NAADP 30 to 50 nM		NAADP-mediated Ca2+ release	inactive
O=C(O)[C@@H](O)[C@@H](O)[C@H](O)[C@@H](O)C(=O)O	SAR11_0271 Candidatus Pelagibacter sp.	differential scanning fluorimetry		concentration not given	higher = stronger binding	ΔTm	2.94 °C
